Measured values gathered from unrelated publications.
Lines come from different studies, so protocols differ.
UniProt O00750, sequence (whole entry, looked up): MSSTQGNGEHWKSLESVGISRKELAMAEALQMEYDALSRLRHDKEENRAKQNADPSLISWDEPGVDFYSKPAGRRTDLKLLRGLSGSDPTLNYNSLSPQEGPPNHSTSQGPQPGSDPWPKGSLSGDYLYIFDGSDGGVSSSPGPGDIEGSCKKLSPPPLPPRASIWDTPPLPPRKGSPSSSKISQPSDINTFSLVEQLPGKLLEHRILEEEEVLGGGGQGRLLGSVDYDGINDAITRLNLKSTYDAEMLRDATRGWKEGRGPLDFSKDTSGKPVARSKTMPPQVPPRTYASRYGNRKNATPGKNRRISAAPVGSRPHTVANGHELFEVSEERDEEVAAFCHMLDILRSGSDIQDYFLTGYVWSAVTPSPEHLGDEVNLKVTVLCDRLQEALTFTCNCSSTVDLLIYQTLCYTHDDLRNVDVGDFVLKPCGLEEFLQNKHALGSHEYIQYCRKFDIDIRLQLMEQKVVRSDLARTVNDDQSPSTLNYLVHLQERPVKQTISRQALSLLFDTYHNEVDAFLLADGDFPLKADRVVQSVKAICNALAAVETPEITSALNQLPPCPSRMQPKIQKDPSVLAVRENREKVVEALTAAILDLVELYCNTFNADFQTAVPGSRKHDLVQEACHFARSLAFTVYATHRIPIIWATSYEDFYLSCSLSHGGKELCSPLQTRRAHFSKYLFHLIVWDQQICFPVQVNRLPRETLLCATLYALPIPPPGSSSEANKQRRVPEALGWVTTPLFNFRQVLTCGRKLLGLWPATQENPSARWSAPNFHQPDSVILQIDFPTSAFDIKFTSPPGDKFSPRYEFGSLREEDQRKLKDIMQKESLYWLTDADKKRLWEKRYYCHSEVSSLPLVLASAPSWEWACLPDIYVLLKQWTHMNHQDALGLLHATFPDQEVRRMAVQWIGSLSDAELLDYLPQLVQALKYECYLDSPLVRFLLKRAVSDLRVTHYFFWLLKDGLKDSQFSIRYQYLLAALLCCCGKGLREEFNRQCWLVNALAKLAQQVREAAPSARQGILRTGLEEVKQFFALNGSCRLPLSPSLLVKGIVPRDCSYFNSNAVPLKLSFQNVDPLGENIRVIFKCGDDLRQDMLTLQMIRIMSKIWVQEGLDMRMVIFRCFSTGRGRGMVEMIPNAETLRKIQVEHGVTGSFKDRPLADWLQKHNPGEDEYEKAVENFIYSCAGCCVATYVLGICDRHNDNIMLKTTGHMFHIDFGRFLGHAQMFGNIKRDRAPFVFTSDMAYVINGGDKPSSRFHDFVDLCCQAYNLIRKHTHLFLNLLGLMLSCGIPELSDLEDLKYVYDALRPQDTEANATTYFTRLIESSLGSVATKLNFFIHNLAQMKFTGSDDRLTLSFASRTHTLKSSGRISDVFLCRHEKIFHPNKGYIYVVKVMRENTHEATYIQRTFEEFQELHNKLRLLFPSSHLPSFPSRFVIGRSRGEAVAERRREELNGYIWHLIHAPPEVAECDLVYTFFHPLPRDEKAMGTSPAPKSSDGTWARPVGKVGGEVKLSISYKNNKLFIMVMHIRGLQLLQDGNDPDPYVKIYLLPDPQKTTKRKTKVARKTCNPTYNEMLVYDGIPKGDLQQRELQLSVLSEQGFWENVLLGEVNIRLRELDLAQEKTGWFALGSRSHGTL
UniProt P00519, sequence (whole entry, unmodified, looked up): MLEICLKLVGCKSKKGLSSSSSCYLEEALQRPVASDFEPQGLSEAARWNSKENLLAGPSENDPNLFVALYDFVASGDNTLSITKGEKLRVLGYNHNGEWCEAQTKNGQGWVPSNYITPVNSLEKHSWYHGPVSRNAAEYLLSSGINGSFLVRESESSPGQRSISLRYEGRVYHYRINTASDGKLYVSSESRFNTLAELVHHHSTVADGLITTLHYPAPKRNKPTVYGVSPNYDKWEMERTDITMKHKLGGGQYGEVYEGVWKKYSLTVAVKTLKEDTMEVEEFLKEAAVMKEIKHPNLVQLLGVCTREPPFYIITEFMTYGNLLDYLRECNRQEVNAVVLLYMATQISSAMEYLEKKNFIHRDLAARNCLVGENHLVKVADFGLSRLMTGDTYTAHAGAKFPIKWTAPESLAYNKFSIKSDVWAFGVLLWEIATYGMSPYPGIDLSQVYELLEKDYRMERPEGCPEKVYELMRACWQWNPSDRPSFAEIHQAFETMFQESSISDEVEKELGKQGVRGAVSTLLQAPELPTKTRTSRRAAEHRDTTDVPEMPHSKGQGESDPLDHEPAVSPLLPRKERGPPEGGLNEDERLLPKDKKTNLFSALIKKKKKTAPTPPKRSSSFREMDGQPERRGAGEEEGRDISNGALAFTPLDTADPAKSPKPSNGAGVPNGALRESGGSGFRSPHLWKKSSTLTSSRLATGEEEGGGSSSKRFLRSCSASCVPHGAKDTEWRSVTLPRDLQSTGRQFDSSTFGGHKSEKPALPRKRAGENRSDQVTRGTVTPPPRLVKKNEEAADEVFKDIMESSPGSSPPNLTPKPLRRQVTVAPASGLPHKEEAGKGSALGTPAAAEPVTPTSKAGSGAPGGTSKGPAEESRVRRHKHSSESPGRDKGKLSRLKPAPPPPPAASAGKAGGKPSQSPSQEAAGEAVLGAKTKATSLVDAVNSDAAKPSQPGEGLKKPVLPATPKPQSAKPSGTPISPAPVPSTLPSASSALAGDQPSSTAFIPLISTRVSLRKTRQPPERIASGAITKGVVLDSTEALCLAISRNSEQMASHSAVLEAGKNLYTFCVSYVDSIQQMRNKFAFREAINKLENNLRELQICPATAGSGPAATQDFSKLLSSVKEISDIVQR
UniProt Q96J92, sequence (whole entry, looked up): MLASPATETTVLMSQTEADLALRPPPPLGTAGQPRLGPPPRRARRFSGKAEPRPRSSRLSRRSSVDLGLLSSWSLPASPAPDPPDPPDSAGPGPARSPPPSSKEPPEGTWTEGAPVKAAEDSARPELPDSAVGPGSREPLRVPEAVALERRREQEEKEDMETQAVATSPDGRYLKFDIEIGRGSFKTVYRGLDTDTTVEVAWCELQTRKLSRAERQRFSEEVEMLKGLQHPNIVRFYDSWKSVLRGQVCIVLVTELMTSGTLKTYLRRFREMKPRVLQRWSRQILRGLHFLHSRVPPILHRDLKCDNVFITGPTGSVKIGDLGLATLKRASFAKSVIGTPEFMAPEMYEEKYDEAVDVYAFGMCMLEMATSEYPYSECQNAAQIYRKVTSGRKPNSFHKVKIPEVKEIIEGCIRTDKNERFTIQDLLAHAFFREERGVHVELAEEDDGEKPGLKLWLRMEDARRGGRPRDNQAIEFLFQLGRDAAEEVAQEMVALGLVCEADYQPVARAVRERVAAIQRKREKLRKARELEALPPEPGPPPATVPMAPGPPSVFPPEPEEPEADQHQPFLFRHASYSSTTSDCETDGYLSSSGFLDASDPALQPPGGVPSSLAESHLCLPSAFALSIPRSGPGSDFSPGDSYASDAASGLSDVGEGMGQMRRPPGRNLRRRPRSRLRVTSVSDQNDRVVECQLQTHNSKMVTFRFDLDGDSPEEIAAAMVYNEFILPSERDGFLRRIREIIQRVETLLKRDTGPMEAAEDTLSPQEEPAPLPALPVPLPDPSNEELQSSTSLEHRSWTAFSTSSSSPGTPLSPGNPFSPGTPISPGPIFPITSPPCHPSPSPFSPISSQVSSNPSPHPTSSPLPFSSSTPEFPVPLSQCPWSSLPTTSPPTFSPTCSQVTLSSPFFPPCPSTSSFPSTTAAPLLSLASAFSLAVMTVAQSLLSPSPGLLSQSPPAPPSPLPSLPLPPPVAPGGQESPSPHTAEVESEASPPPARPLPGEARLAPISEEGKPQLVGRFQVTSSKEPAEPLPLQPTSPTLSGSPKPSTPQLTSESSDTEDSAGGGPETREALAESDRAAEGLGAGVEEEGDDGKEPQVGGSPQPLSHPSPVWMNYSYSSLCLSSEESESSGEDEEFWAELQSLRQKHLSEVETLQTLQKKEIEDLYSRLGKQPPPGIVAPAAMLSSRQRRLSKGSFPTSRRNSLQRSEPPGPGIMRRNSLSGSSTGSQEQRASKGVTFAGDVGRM

| SMILES | tested on | assay | test system | conditions | quantity | result |
| --- | --- | --- | --- | --- | --- | --- |
| Nc1ncc(-c2nc(N3CCOCC3)nc(N3CCOCC3)n2)c(C(F)F)n1 | EGFR (Homo sapiens, UniProt P00533, L858R) | cell-free assay, competition with immobilised ligand |  | 10 µM | remaining binding | 40% |
| C/C=C1/CN2CC[C@@]34c5ccccc5N(C)[C@]35OC[C@@]4(C(=O)OC)[C@H]1C[C@H]25 |  |  | Caco-2 | pH 7.4 | Papp A→B | 29 ×10⁻⁶ cm/s |
| COCC1=N[C@@]2(O)[C@H](C(=O)N(C)OC)[C@@H](c3ccccc3)[C@]3(c4ccc(OC)cc4)Oc4cc(OC)cc(OC)c4[C@]23N1 |  | metabolic stability | male CD-1 mouse, liver microsomes | 1 µM, pH 7.4 | microsomal CLint | 308 µL/min/mg |
| COc1ncccc1-c1cnn2ccc(N3CCN(C(=O)OC(C)C)CC3)nc12 | PIK3C2B (Homo sapiens, UniProt O00750) | binding, competition with immobilised ligand |  | 1 µM | remaining binding | 92% |
| COc1ccc2c(c1)[C@]13CCCC[C@@H]1[C@H](C2)N(C)CC3 |  |  | Sprague-Dawley rat, hepatocytes | 2 µM, 4 h, pH 7.4 | fraction unbound | 1 |
| [2H]c1c([2H])c([C@]2([2H])CCCN2C(=O)C(C)(C)Oc2ccc3cn[nH]c3c2)c([2H])c([2H])c1C([2H])([2H])[2H] | WNK4 (Homo sapiens, UniProt Q96J92) | binding, competition with immobilised ligand |  | 1 µM | remaining binding | 100% |
| CC[C@H](C)[C@H](NC(=O)CN)C(=O)NCC(=O)N[C@@H](C)C(=O)N[C@H](C(=O)N[C@@H](CC(C)C)C(=O)N[C@@H](CCCCN)C(=O)N[C@H](C(=O)N[C@@H](CC(C)C)C(=O)N[C@H](C(=O)N[C@H](C(=O)NCC(=O)N[C@@H](CC(C)C)C(=O)N1CCC[C@H]1C(=O)N[C@@H](C)C(=O)N[C@@H](CC(C)C)C(=O)N[C@H](C(=O)N[C@@H](CO)C(=O)N[C@@H](Cc1c[nH]c2ccccc12)C(=O)N[C@H](C(=O)N[C@@H](CCCCN)C(=O)N[C@@H](CCCNC(=N)N)C(=O)N[C@@H](CCCCN)C(=O)N[C@@H](CCCNC(=N)N)C(=O)N[C@@H](CCC(N)=O)C(=O)N[C@@H](CCC(N)=O)C(N)=O)[C@@H](C)CC)[C@@H](C)CC)[C@@H](C)O)[C@@H](C)O)C(C)C)C(C)C |  | chemical stability, HPLC | human, serum | 300 µM, 24 h | compound remaining | ~23% |
| CCCCCOc1ccc(C(=O)c2cccc3ccccc23)c2ccccc12 |  |  | mouse, brain | intraperitoneal, 3 mg/kg | unbound tissue/plasma ratio | 0.016 |
| Cc1nn(C)cc1-c1nc2c(N3CCN(Cc4ccc(Cl)cc4)CC3)c(Cl)cnc2[nH]1 | Tyrosine-protein kinase ABL1, phosphorylated (ABL1, Homo sapiens, UniProt P00519, F317I) | binding, competition with immobilised ligand |  | 1 µM | remaining binding | 65% |
| COc1ccc([C@@]23Oc4cc(OC)cc(OC)c4[C@@]24N=C(C2CC2)N[C@@]4(O)[C@H](C(=O)N(C)OC)[C@H]3c2ccccc2)cc1 |  | metabolic stability | male CD-1 mouse, liver microsomes | 1 µM, pH 7.4 | microsomal CLint | 924 µL/min/mg |
| Cc1ncc2n1-c1ccc(Cl)cc1C(c1ccccc1F)=NC2 |  |  | Sprague-Dawley rat, hepatocytes | 2 µM, 4 h, pH 7.4 | fraction unbound | 1 |
| C[C@]12CC[C@H]3[C@@H](CC=C4CC(O)CC[C@@]43CO)[C@@H]1CCC2O (stereo partly drawn) |  |  | rat, plasma | intraperitoneal, 20 mg/kg | half-life | 1.39 h |

For quick reference, copied from above:
| SMILES | tested on | assay | test system | conditions | quantity | result |
| --- | --- | --- | --- | --- | --- | --- |
| COc1ncccc1-c1cnn2ccc(N3CCN(C(=O)OC(C)C)CC3)nc12 | PIK3C2B (Homo sapiens, UniProt O00750) | binding, competition with immobilised ligand |  | 1 µM | remaining binding | 92% |
| COc1ccc2c(c1)[C@]13CCCC[C@@H]1[C@H](C2)N(C)CC3 |  |  | Sprague-Dawley rat, hepatocytes | 2 µM, 4 h, pH 7.4 | fraction unbound | 1 |
